Results from different studies.
Numbered parts are unrelated; each lists some results of a single study. pIC50: −log10 of the molar value.

Set 1
Target: Max-binding protein MNT, bHLH-zipper, MAX partner unstated (MNT, Homo sapiens, UniProt Q99583, residues 220-300)
Method: protein-binding microarray
Form: double-stranded DNA, one strand shown
Medium: in vitro
Concentration: not given
Setting: k-mer, scored over probes, only values ≥0.25
Direction: higher = stronger binding
Target sequence (chain): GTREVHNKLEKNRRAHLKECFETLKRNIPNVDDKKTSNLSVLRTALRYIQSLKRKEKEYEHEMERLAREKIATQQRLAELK
| Oligonucleotide | E-score |
| --- | --- |
| CGACGGGC | 0.304 |
| CACGCCTA | 0.289 |
| CGGCCCCA | 0.284 |
| GCATGAGC | 0.29 |
| ACGTGACG | 0.395 |
| AGCATGAT | 0.301 |

Set 2
Target: RNA binding protein fox-1 homolog 2, RRM domain, GST-SBP tag (RBFOX2, Homo sapiens, UniProt O43251-10, residues 100-194)
Method: RNA Bind-n-Seq
Form: RNA
Medium: in vitro
Concentration: 365 nM
Setting: natural RNA segment, single round, ends assumed
Reference: no-protein control
Direction: higher = stronger binding
Construct (chain): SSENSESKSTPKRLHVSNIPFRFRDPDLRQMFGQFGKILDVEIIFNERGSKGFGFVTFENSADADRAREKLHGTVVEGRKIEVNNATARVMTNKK
| Oligonucleotide | RBNS enrichment (R) |
| --- | --- |
| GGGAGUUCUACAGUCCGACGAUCAGACAGAAUCCACUCCUAAGUUAGGACAUGGAGCCCAGAUACUAUGAUACCAAAUUCAGGGGUGUCACAGCCAUUUUGUUCUGCCCUGCAAGUUUUAGAUCCAAUCUGCCUGGAAUUCUCGGGUGCCAA | 0.608 |
| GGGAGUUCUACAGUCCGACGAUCGCACCCACCUCCUCAUUGGAUGGCUCCCUCCAUGCACUGACCCUCUGCCUGCCUUUGUACCUCACUCACCUCCACCGCUCUCCAGCCCCUCUGAUGGCCACUCAGAGAAUUGGAAUUCUCGGGUGCCAA | 4.64 |
| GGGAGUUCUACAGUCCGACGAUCCAGAUAGGCUCCGGGGAAGUCCAUUCCAGCUGCCACCGGCAGACAGGAGGAUAGUUGUUCUGUCUUGGGAGACGGUUUCCAAAAACUCCGAGAGACUUUCUGCUAAUGGUUGGAAUUCUCGGGUGCCAA | 0.402 |
| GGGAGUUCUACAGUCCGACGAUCUCCUCUCUAAACAUAAUGAGGAAUCUCAGCAAUGAACUGGCUUCCCACCAGAGGGAAGAGUCUCUUGUGGGUGUGUUGGGUCUCCUAAUAAGAUGACUCUCCAUCUAGAUUGGAAUUCUCGGGUGCCAA | 0.503 |
| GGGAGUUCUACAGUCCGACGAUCCUUCUAUUUAUUUAACAUCGAGGGUUGGGGGAGGGGUUGGUCCUGCCCUCGGCUGGAGUUCCUUUCUCACCCCUGUGAUUUGGAGGUGUGGAGAAGGGGAAGGGAGGGACUGGAAUUCUCGGGUGCCAA | 0.641 |
| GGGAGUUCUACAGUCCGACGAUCCAUGGUGACACAUAGCAUUGAACUCUCCACUCUGAGGGUGGGUUUCCCUCCCCCUGCCUCUUCUGGGUUGGUCACCCCAUAGGACAGCCACAGGACAGUCACUAGCACCUUGGAAUUCUCGGGUGCCAA | 0.35 |
| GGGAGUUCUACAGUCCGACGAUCCUCUCACCUGCUUGGUUGCAAGGCUCAUAUUUUUUUGUACCUUUCCUAUAGAUUCUGUAGCAUUUGAGUGUGGCAAUAUUUUAAUUGUGUAUAGAUUUCUAAGAACCAACUGGAAUUCUCGGGUGCCAA | 0.364 |
| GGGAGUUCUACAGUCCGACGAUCGAGGGGGGUUAGCAUUUCCACUUUCAGUUGAGUAGCAUUUUGUAGAAUAAAAUGAAUUAAGAUUGAAGAGCCUCUGAUGGUUGGUUUAUUCUGUCUUCCCAUCUCUCCUUUGGAAUUCUCGGGUGCCAA | 0.862 |

Set 3
Target: Cyclic AMP-dependent transcription factor ATF-1, full length (ATF1, Homo sapiens, UniProt P18846, residues 1-271)
Method: protein-binding microarray
Form: hairpin DNA
Medium: in vitro
Concentration: not given
Setting: whole hairpin DNA, median over replicate spots
Reference: not given
Direction: higher = stronger binding
Shared flanks, not repeated: GAGGCCG … CGGCCTCACACTC
Target sequence (chain): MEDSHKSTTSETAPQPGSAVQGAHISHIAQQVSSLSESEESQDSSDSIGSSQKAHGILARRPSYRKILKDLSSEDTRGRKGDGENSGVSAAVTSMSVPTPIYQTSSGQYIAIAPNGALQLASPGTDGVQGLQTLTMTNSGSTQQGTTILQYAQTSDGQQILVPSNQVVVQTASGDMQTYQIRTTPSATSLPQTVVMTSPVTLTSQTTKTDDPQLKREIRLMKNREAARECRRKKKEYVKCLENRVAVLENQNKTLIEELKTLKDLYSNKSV
| Oligonucleotide | median fluorescence [a.u.] |
| --- | --- |
| GCGGACGTCAGCCTCCTGGCTGACGTCCGC (5mC at 9) | 5210 |
| GCGGACGTCAGCCTCCTGGCTGACGTCCGC (5mC at 9 35) | 4830 |
| ACGACGTCGTGCCTCCTGGCACGACGTCGT (5mC at 15 29 35) | 3710 |
| ACGACGTCGTGCCTCCTGGCACGACGTCGT (5mC at 9 35) | 3970 |
| ACGACGTCGTGCCTCCTGGCACGACGTCGT (5mC at 9 15 29 32 35) | 3360 |
| ACGACGTCGTGCCTCCTGGCACGACGTCGT (5mC at 9 12 15 29 32 35) | 3280 |
| GCTGACGGCAGCCTCCTGGCTGCCGTCAGC | 3860 |
| ACGACGTCGTGCCTCCTGGCACGACGTCGT (5mC at 9 15 29) | 6140 |

Set 4
Target: Replicase polyprotein 1ab, polymerase (rep, Severe acute respiratory syndrome coronavirus 2, UniProt P0DTD1)
Observed: enzyme activity
Mode: inhibitor
Concentration: 20 µM
| Structure (SMILES) | inhibition |
| --- | --- |
| NC1CCN(c2c(F)cc3c(=O)c(C(=O)O)cn(C4CC4)c3c2Cl)C1 (stereo not drawn) | -4.29% |
| CSC[C@H](N)C(=O)O | 4.02% |
| CNc1ncnc2c1ncn2[C@@H]1O[C@H](CO)[C@@H](O)[C@H]1O | -6.04% |
| CCCCCCCCCCCCC/C=C/[C@@H](O)[C@@H](N)COP(=O)([O-])OCC[N+](C)(C)C | -1.22% |
| Cc1[nH]c(/C=C2\C(=O)Nc3cc(-c4ccccc4)ccc32)c(C)c1CCC(=O)O | 18.6% |
| COC[C@@H](c1ccc(C(F)(F)F)cc1)N1CCN(C2(C)CCN(C(=O)c3c(C)ncnc3C)CC2)C[C@@H]1C | -0.75% |
| COc1cc(F)c(F)c(Nc2ccc(I)cc2F)c1NS(=O)(=O)C1(C[C@H](O)CO)CC1 | -1.93% |
| Cc1ccc(S(=O)(=O)NC2c3ccccc3Oc3ccccc32)cc1 | -4.19% |
| O=C(Nc1ccc(N2CCC(C(=O)N3CCOCC3)CC2)cc1)c1cnc(Oc2ccccc2)nc1 | 2.21% |
| COc1cc(N)c(Cl)cc1C(=O)NC1CCN(Cc2ccccc2)CC1 | 0.08% |
| Fc1ccc(CN2CCC(Nc3ccc(C(F)(F)F)nn3)CC2)cc1F | 0.92% |
| Cc1nc2sccn2c(=O)c1CCN1CCC(=C(c2ccccc2)c2ccc(F)cc2)CC1 | 0.16% |
| O=C(/C=C/c1ccc(O)c(O)c1)O[C@H](Cc1ccc(O)c(O)c1)C(=O)O | 46.6% |
| CCCOCCn1c(=O)c(N2CCN(CCO)CC2)nc2cnc(-c3ccc(OC)nc3)cc21 | -0.88% |
| NCC[C@H](O)C(=O)N[C@@H]1C[C@H](N)[C@@H](O[C@H]2O[C@H](CN)[C@@H](O)[C@H](O)[C@H]2O)[C@H](O)[C@H]1O[C@H]1O[C@H](CO)[C@@H](O)[C@H](N)[C@H]1O | -3.97% |
| CCCCCCCCCCCC(=O)N(CCO)CCO | -1.21% |
| CC(C)(CO)c1cc2cc(NC(=O)C3(c4ccc5c(c4)OC(F)(F)O5)CC3)c(F)cc2n1C[C@@H](O)CO | -7.38% |
| CS(=O)(=O)Nc1ccc(Cc2noc(-c3ccc4[nH]cc(CCN)c4c3)n2)cc1 | 7.76% |
| O=C(NS(=O)(=O)c1ccc(Br)s1)c1ccc(Cl)cc1Cl | -2.81% |
| CNC(=O)c1cc(Oc2ccc(NC(=O)Nc3ccc(Cl)c(C(F)(F)F)c3)c(F)c2)ccn1 | -1.83% |
| N[C@@H](Cc1ccc(B(O)O)cc1)C(=O)O | 1.46% |
| C#C[C@]1(O)CC[C@H]2[C@@H]3CCc4cc(OC5CCCC5)ccc4[C@H]3CC[C@@]21C | -6.33% |
| COCC(=O)O[C@]1(CCN(C)CCCc2nc3ccccc3[nH]2)CCc2cc(F)ccc2[C@@H]1C(C)C | 1.03% |
| Cc1[nH]c2ccc(Cl)cc2c1C1=CCNCC1 | -1.31% |
| CC(C)n1c(=O)n(C(=O)NC2C[C@H]3CC[C@@H](C2)N3C)c2ccccc21 (stereo partly drawn) | -5.02% |

Set 5
Target: Histone acetyltransferase KAT6A, winged helix 1, GST fusion (KAT6A, Homo sapiens, UniProt Q92794, residues 1-85)
Method: protein binding microarray
Form: double-stranded DNA, one strand shown
Medium: in vitro
Concentration: not given
Setting: 8-mer, flanks averaged, mean of 2 arrays, mostly near background
Reference: not given
Direction: higher = stronger binding
Construct (chain): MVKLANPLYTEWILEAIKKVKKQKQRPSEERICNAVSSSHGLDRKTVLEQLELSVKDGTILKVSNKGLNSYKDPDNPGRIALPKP
| Oligonucleotide | E-score |
| --- | --- |
| GGGTCCAC | 0.0693 |
| CCAAGTCG | -0.105 |
| CACCATAG | -0.227 |
| AAAAATGG | -0.173 |
| ATGCCTAA | -0.194 |
| ACGCCTCC | 0.125 |
| GTTTGCGA | 0.162 |
| GGGCGTAA | 0.204 |

Further values, each from its own experiment
| SMILES | tested on | assay | setting | how to read | measurement | result |
| --- | --- | --- | --- | --- | --- | --- |
| CC(=O)S[C@@H]1CC2=CC(=O)CC[C@]2(C)[C@H]2CC[C@@]3(C)[C@@H](CC[C@@]34CCC(=O)O4)[C@H]12 | HEK-293T/ACE2 |  | concentration not given, 16 (unit not given) | reference: vehicle | viability | 105% |
| C=C1C(=O)[C@]23[C@H](O)[C@H]1CC[C@@H]2[C@@]12CO[C@]3(O)C[C@@H]1C(C)(C)CC[C@@H]2O | Replicase polyprotein 1ab, main protease (rep, Severe acute respiratory syndrome coronavirus 2, UniProt P0DTD1) | enzyme activity, inhibitor | without DTT |  | pIC50 | 5.59 |
